Measurements from different studies.
Lines come from different studies, so protocols differ. ± marks the error that the study gave.

SMILES | assay | test system | setting | scale | quantity | value
CCCC[C@@H]1NC(=O)[C@H](Cc2ccc(O)cc2)NC(=O)[C@@H]2CCCN2C(=O)[C@H](CC(=O)O)NC(=O)[C@H](C)NC(=O)[C@H](Cc2ccccc2)NC(=O)[C@@H]2CSCCC(=O)N3CN(CN(C3)C(=O)CCSC[C@@H](C(=O)N[C@@H](C)C(N)=O)NC1=O)C(=O)CCSC[C@H](NC(C)=O)C(=O)N[C@@H](CC(C)(C)C)C(=O)N1CCC[C@H]1C(=O)N[C@@H](CCC(=O)O)C(=O)N[C@H](CCCCNC(=O)CCc1cn(CCOCCOCCOCCN(CCOCCOCCOCCC(=O)N[C@H]3CSCCC(=O)N4CN5CN(C4)C(=O)CCSC[C@H](NC(=O)[C@@H](CC(=O)O)NC(=O)[C@H](Cc4cccc6ccccc46)NC(=O)[C@@H]4CCCN4C3=O)C(=O)N[C@@H](CCSC)C(=O)N[C@@H](CCCCNC(=N)N)C(=O)N[C@@H](CC(=O)O)C(=O)N[C@@H](Cc3c[nH]c4ccccc34)C(=O)N[C@@H](CO)C(=O)N[C@@H]([C@@H](C)O)C(=O)N3CCC[C@H]3C(=O)N3C[C@H](O)C[C@H]3C(=O)N[C@@H](Cc3c[nH]c4ccccc34)C(=O)N[C@H](C(N)=O)CSCCC5=O)CCOCCOCCOCCn3cc(CCC(=O)NCCCC[C@H]4NC(=O)[C@H](CCC(=O)O)NC(=O)[C@@H]5CCCN5C(=O)[C@H](CC(C)(C)C)NC(=O)[C@@H](NC(C)=O)CSCCC(=O)N5CN6CN(C5)C(=O)CCSC[C@H](NC(=O)[C@H](Cc5ccc(O)cc5)NC(=O)[C@@H]5CCCN5C4=O)C(=O)N[C@@H](Cc4ccccc4)C(=O)N[C@@H](C)C(=O)N[C@@H](CC(=O)O)C(=O)N4CCC[C@H]4C(=O)N[C@@H](Cc4ccc(O)cc4)C(=O)N[C@@H](CCCC)C(=O)N[C@H](C(=O)N[C@@H](C)C(N)=O)CSCCC6=O)nn3)nn1)C(=O)N1CCC[C@H]1C(=O)N[C@@H](Cc1ccc(O)cc1)C(=O)N2 | NanoString | mouse, MC38-Nectin-4 syngeneic tumour, circulating white blood cells | 5 mg/kg, 24 h |  | number of modulated transcripts | 14
Cc1ncc([N+](=O)[O-])n1CCOCc1nnc(SCC(=O)c2ccc(F)cc2)o1 |  |  | 50 µg/mL, 45 min |  | DPPH scavenging | 65.21 ± 0.26%
CCCC[C@H](NC(=O)[C@@H](NC(=O)[C@H](CC(=O)O)NC(=O)[C@H](CCC(N)=O)NC(=O)[C@H](CC(C)C)NC(=O)[C@H](CC(C)C)NC(=O)[C@H](CCCN)NC(=O)[C@H](CCCNC(=N)N)NC(=O)[C@H](C)NC(=O)[C@H](CO)NC(=O)[C@H](CC(C)C)NC(=O)[C@H](CCC(N)=O)NC(=O)[C@H](CC)NC(=O)[C@H](CC(C)C)NC(=O)[C@@H](NC(=O)[C@H](CCCN)NC(=O)[C@H](CCCNC(=N)N)NC(=O)[C@H](Cc1ccc(O)cc1)NC(=O)[C@H](CO)NC(=O)[C@H](CC(N)=O)NC(=O)[C@@H](NC(=O)[C@H](Cc1c(F)c(F)c(F)c(F)c1F)NC(=O)[C@@H](NC(=O)[C@H](C)NC(=O)[C@H](CC(=O)O)NC(=O)[C@@H](C)NC(=O)CCc1ccc(O)cc1)[C@@H](C)CC)[C@@H](C)O)C(C)C)[C@@H](C)CC)C(=O)N[C@@H](CO)C(=O)N[C@@H](CCCNC(=N)N)C(=O)NCCCC(N)=O | GH release, ELISA | male Sprague-Dawley rat, anaesthetised, serum | subcutaneous, 3 µg/kg, 0 min |  | serum GH level | 61.7 ± 8.1 ng/mL
CC1(CN)CCN(c2cnc(Sc3cccc(Cl)c3Cl)c(N)n2)CC1 |  | imiquimod psoriasis mice | dose not given | relative to: model group | spleen index | decreased
O=C(OCc1cccc(O)c1O)c1ccc(O)c(CO)c1 |  | C57BL/6J mice, aortic rings | dose not given, angiotensin II infusion, together with: phenylephrine |  | contractile response | no effect
Cc1cccc(Cn2ncc3c4cc(F)c(CN(C)C)cc4n(C)c3c2=O)n1 |  | rd10 mouse, retina | intraperitoneal, 50 mg/kg at P14, P21 |  | CD11b+/CD45+/Ly6C+ inflammatory monocytes | decreased
O=c1c(OCc2ccccc2)c(-c2cccc([N+](=O)[O-])c2)oc2ccccc12 |  | diabetic rat | 5 mg/kg, 28 days, p-nitrophenyl β-glucoside induced |  | serum HDL cholesterol | 43.7 ± 1.98 mg/dL
CCOP(=O)(CC(=O)Nc1ccc(S(=O)(=O)N(CC(N)=O)c2ccc(N(CC(N)=O)S(=O)(=O)c3ccc(OC)cc3)c3ccccc23)cc1)OCC | western blot, refers to: amyloid beta | APP/PS1 mice, hippocampus and frontal cortex | 40 mg/kg |  | protein level | decreased
COc1c2c(cc3oc(C)cc(=O)c13)O[C@H](C(C)(C)O[C@@H]1O[C@H](CO)[C@@H](O)[C@H](O)[C@H]1O)C2 |  | mouse, xylene ear edema | oral, 2 mg/kg |  | ear edema weight increase | 6.42 ± 0.23 mg
CCCCCCOC(=O)Cc1c(C)n(C(=O)c2ccc(Cl)cc2)c2ccc(OC)cc12 | acetic acid writhing test | BALB/c mouse | intraperitoneal, 20 mg/kg | relative to: negative control | analgesia | 69.3%
COc1ccc(-c2oc3ccccc3c(=O)c2OCc2ccccc2)cc1 |  | diabetic rat | 7.5 mg/kg, 28 days, p-nitrophenyl β-glucoside induced |  | serum total cholesterol | 120 ± 4.89 mg/dL
CC(C)(O)c1ccc(N2Cc3c(ccnc3-c3ccc(F)cc3OCC(F)(F)F)C2=O)cc1 |  | Gaucher disease mouse model, plasma | 30 mg/kg, 2 months once daily | relative to: vehicle | glucosylsphingosine level | 36 ± 3%
CC(C)c1cnc(-c2cc(Cl)ccc2F)cc1Nc1ccncc1C(=O)NC(CO)CO | refers to: pSMAD2 | 4T1 tumour-bearing mouse, tumour | 10 mg/kg twice daily | relative to: vehicle | maximum inhibition | 36%
Cc1ccc(N(CCc2nnc(S)n2N)S(=O)(=O)c2ccc(C)cc2)cc1 | tail flick, radiant heat | rat | 200 mg/kg |  | analgesic protection | 121%
Cc1cc2c(cc1C1(c3ncc(C(=O)O)cn3)CC1)C(C)(C)CCC2(C)C | RNA sequencing, refers to: Lrrc4c mRNA | rat, brain | dose not given, 24 h, single dose | relative to: vehicle | log2 fold change | 0.11
O=c1c(OCc2ccccc2)c(-c2ccc([N+](=O)[O-])cc2)oc2ccccc12 |  | diabetic rat | 7.5 mg/kg, 28 days, p-nitrophenyl β-glucoside induced |  | serum HDL cholesterol | 41 ± 1.89 mg/dL
CCCCCCCOC(=O)Cc1c(C)n(C(=O)c2ccc(Cl)cc2)c2ccc(OC)cc12 | hot plate test | BALB/c mice | 75 mg/kg, 0 min |  | latency of nociceptive response | 10.5 ± 0.68 s
CC[C@H]1[C@@H](O)[C@@H]2[C@H](CC[C@]3(C)[C@@H]([C@H](C)CCOS(=O)(=O)[O-])CC[C@@H]23)[C@@]2(C)CC[C@@H](O)C[C@@H]12.[Na+] | EchoMRI | ob/ob NASH mouse model | oral, 3 mg/kg once daily, 8 weeks | relative to: body weight | whole-body lean mass | 33.9 ± 0.9%
NS(=O)(=O)NCCc1ccccc1F | MES seizures | rat | oral |  | ED50 | 36 mg/kg
CCNC(=O)[C@@H]1CCCN1C(=O)[C@H](CCCNC(=N)N)NC(=O)[C@H](CC(C)C)NC(=O)[C@@H](CC(C)C)NC(=O)[C@H](Cc1ccc(O)cc1)NC(=O)[C@H](CO)NC(=O)[C@H](Cc1c[nH]c2ccccc12)NC(=O)[C@H](Cc1c[nH]cn1)NC(=O)[C@@H]1CCC(=O)N1 |  | Sprague-Dawley rat, serum | subcutaneous, 100 µg/kg/day, 35 days |  | time to castration testosterone | 2 days
COc1cc(C(=O)OCCCN2CCCN(CCCOC(=O)c3cc(OC)c(OC)c(OCc4ccc([N+](=O)[O-])cc4)c3)CC2)cc(OC)c1OC | licking and flinching | mouse, both sexes, formalin pain | intrathecal, 1 to 100 nmol |  | formalin pain phase 1 | no effect
CCCC[C@H](NC(=O)[C@@H](NC(=O)[C@H](CC(=O)O)NC(=O)[C@H](CCC(N)=O)NC(=O)[C@H](CC(C)C)NC(=O)[C@H](CC(C)C)NC(=O)[C@H](CCCN)NC(=O)[C@H](CCCNC(=N)N)NC(=O)[C@H](C)NC(=O)[C@H](CO)NC(=O)[C@H](CC(C)C)NC(=O)[C@H](CCC(N)=O)NC(=O)[C@H](CC)NC(=O)[C@H](CC(C)C)NC(=O)[C@@H](NC(=O)[C@H](CCCN)NC(=O)[C@H](CCCNC(=N)N)NC(=O)[C@H](Cc1ccc(O)cc1)NC(=O)[C@H](CO)NC(=O)[C@H](CCC(N)=O)NC(=O)[C@@H](NC(=O)[C@H](Cc1ccccc1)NC(=O)[C@@H](NC(=O)[C@H](C)NC(=O)[C@H](CC(=O)O)NC(=O)[C@H](C)NC(=O)CCc1ccc(O)cc1)[C@@H](C)CC)[C@@H](C)O)C(C)C)[C@@H](C)CC)C(=O)N[C@@H](CC(=O)O)C(=O)N[C@@H](CCCNC(=N)N)C(=O)NC | GH release, ELISA | male Sprague-Dawley rat, anaesthetised, serum | subcutaneous, 3 µg/kg, 0 min |  | serum GH level | 36.7 ± 10.2 ng/mL
CCCCCCCCCCCCCCCC(=O)N[C@@H](CCC(=O)NCCCC[C@H](NC(=O)[C@H](CC(=O)O)NC(=O)[C@H](CO)NC(=O)[C@@H](NC(=O)[C@H](Cc1ccccc1)NC(=O)[C@@H](NC(=O)CNC(=O)[C@H](CCC(N)=O)NC(=O)[C@H](CO)NC(=O)[C@@H](N)Cc1c[nH]cn1)[C@@H](C)O)[C@@H](C)O)C(=O)N[C@@H](CO)C(=O)N[C@@H](CCC(=O)O)C(=O)N[C@@H](Cc1ccc(O)cc1)C(=O)N[C@@H](CC(C)C)C(=O)N[C@@H](CC(=O)O)C(=O)N[C@@H](CO)C(=O)N[C@@H](CCC(=O)O)C(=O)N[C@@H](CCCNC(=N)N)C(=O)N[C@@H](C)C(=O)N[C@@H](CCCNC(=N)N)C(=O)N[C@@H](CC(=O)O)C(=O)N[C@@H](Cc1ccccc1)C(=O)N[C@H](C(=O)N[C@@H](C)C(=O)N[C@@H](Cc1c[nH]c2ccccc12)C(=O)N[C@@H](CC(C)C)C(=O)N[C@@H](CCC(=O)O)C(=O)N[C@@H](C)C(=O)NCC(=O)NCC(=O)O)C(C)C)C(=O)O |  | female cynomolgus monkey | subcutaneous, 27 nmol/kg/day for 8 weeks, day 57 | relative to: starting body weight | body weight loss | 13%
C[C@H](CC(=O)C[C@@H](C)[C@H]1C[C@H](O)[C@@]2(C)C3=C(C(=O)C[C@]12C)[C@@]1(C)CCC(=O)C(C)(C)[C@@H]1C[C@@H]3O)C(=O)O |  | mouse, STZ-induced type 1 diabetes, liver | dose not given |  | glucose-6-phosphatase activity | 28.5 ± 1.34 U/mg tissue
CCCC[C@H](NC(=O)[C@@H](NC(=O)[C@H](CC(=O)O)NC(=O)[C@H](CCC(N)=O)NC(=O)[C@H](CC(C)C)NC(=O)[C@H](CC(C)C)NC(=O)[C@H](CCCN)NC(=O)[C@H](CCCNC(=N)N)NC(=O)[C@H](C)NC(=O)[C@H](CO)NC(=O)[C@H](CC(C)C)NC(=O)[C@H](CCC(N)=O)NC(=O)[C@H](CC)NC(=O)[C@H](CC(C)C)NC(=O)[C@@H](NC(=O)[C@H](CCCN)NC(=O)[C@H](CCCNC(=N)N)NC(=O)[C@H](Cc1ccc(O)cc1)NC(=O)[C@H](CO)NC(=O)[C@H](CC(N)=O)NC(=O)[C@@H](NC(=O)[C@H](Cc1ccccc1)NC(=O)[C@@H](NC(=O)[C@H](C)NC(=O)[C@H](CC(=O)O)NC(=O)[C@@H](CC)NC(=O)CCc1ccc(O)cc1)[C@@H](C)CC)[C@@H](C)O)C(C)C)[C@@H](C)CC)C(=O)N[C@@H](CO)C(=O)N[C@@H](CCCNC(=N)N)C(=O)NCCCC(N)=O | GH release, ELISA | male Sprague-Dawley rat, anaesthetised, serum | subcutaneous, 3 µg/kg, 30 min |  | serum GH level | 130 ± 19.1 ng/mL
